Measurements from different studies.
Each numbered part is a random draw from the data of one study; scales do not carry over between parts. Several values in a cell are separate wells, animals, samples, runs or records.
Chain of UniProt O75385 (whole entry, looked up): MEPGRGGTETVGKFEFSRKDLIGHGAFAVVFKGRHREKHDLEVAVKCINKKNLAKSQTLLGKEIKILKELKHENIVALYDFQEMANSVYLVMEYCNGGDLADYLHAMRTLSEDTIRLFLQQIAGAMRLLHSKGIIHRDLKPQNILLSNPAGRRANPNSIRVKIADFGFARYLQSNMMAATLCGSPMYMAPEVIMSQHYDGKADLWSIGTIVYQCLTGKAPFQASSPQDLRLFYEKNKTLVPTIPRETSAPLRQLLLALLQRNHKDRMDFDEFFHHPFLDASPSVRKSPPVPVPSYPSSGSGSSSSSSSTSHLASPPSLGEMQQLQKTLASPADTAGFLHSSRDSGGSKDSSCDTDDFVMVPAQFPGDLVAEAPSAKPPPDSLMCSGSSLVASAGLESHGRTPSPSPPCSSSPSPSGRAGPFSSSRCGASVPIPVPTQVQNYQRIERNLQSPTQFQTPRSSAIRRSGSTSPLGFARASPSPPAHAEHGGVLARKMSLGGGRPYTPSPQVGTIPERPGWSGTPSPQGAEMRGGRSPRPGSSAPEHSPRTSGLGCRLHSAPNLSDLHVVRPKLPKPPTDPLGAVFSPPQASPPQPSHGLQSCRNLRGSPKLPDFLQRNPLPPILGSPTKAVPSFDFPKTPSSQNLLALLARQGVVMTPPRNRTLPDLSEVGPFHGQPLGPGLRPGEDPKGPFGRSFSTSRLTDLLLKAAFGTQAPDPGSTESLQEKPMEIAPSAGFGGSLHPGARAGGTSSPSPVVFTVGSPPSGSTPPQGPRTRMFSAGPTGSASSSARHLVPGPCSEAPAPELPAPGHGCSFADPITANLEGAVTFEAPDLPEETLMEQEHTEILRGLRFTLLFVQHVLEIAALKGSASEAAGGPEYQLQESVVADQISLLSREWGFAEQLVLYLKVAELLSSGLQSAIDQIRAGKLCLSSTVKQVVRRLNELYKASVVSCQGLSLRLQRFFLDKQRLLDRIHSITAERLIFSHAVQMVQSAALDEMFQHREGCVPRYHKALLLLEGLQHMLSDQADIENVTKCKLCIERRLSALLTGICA
Chain of UniProt Q8IVH8 (whole entry, looked up): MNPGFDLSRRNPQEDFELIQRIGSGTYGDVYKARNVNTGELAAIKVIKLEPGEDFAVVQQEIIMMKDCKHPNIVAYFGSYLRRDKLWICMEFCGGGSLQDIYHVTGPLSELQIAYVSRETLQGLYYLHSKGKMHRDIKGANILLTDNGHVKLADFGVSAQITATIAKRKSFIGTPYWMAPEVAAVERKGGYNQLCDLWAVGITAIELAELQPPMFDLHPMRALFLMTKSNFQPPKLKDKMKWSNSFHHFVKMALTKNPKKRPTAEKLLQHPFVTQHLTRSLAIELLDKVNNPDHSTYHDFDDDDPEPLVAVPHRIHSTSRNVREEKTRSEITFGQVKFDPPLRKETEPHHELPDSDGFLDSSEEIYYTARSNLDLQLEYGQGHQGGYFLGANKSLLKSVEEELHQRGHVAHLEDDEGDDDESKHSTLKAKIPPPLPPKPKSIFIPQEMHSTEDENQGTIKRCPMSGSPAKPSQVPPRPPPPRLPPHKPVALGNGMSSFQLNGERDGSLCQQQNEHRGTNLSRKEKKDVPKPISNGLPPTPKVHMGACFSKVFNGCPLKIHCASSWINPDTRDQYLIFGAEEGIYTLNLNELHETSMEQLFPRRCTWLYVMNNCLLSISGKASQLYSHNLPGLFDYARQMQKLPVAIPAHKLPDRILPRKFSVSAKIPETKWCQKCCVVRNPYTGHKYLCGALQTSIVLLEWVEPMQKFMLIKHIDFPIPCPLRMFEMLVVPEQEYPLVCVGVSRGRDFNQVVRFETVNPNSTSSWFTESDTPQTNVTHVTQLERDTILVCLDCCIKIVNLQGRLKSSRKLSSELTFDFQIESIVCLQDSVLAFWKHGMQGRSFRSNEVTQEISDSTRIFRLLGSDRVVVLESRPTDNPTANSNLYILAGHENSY
Chain of UniProt P54756 (whole entry, looked up): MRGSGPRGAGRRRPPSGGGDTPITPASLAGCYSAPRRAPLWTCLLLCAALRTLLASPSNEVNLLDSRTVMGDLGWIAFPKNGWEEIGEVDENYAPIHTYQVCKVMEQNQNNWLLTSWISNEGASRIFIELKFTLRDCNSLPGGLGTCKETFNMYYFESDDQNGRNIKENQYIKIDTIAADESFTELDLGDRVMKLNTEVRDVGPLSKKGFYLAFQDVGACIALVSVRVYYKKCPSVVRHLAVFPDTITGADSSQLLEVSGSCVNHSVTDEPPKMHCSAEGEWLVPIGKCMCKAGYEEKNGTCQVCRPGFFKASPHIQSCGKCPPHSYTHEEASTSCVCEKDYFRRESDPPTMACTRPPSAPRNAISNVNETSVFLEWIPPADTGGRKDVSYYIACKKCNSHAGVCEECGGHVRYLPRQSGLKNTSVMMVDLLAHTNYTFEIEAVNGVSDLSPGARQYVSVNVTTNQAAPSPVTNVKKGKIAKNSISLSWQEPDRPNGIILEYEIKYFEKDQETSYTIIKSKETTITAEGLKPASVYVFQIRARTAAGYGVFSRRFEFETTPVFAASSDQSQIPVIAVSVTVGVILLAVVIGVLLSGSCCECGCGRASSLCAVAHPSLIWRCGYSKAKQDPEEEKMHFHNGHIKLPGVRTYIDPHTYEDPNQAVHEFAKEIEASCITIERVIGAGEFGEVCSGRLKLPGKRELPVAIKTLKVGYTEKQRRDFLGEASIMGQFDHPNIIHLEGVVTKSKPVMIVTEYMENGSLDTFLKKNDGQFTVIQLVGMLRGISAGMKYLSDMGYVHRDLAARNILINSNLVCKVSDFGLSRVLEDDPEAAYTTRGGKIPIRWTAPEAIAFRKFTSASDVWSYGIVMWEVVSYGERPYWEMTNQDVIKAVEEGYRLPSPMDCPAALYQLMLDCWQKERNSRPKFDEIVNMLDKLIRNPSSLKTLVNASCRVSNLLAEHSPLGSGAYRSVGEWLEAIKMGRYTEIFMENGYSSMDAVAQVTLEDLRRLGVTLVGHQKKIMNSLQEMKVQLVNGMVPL

Study 1 — measurement: CC50
SMILES: CC(C)S(=O)(=O)c1ccc2nccc(Nc3ccc4scnc4c3)c2c1
CCK-8; L929 RIPK3 knockout, mouse; MEM with 10% FBS: 28.8 µM and 18.9 µM
L929; cell growth or viability: 22.5 µM
L929; cell viability, CCK-8; without zVAD, 10% FBS, mean of 3: 6.32 µM

Study 2 — effect on: cell-free assay; technique: competition with immobilised ligand; concentration: 1 µM; measurement: remaining binding
Compound: Cn1cncc1[C@](O)(COc1ccc(C#N)cc1-c1ccc(OC(F)(F)F)cc1)c1ccc(C#N)cc1
Serine/threonine-protein kinase ULK1 (ULK1, Homo sapiens, UniProt O75385): 100%
Ephrin type-A receptor 5 (EPHA5, Homo sapiens, UniProt P54756): 97%
Mitogen-activated protein kinase kinase kinase kinase 3 (MAP4K3, Homo sapiens, UniProt Q8IVH8): 100%

Study 3 — effect on: peptide-MHC binding; molecule type: peptide; concentration: concentration not given; measurement: binding
Target: HLA class I histocompatibility antigen, C alpha chain, allele C*04:01 (Homo sapiens, UniProt P10321)
RVYAHVRSV: inactive
NRDVSFQDL: inactive
MMMSTAVAF: inactive

Mixed results
O=C1CCC(N2Cc3cc(C4CCN(Cc5ccccc5)CC4)ccc3C2=O)C(=O)N1 (stereo not shown)  clearance (Sprague Dawley rat, male, plasma; intravenous, 1.0 mg/kg): 49.8 mL/min/kg

Some of these lines once more (study 1):
L929; cell growth or viability: 22.5 µM
